{"data": "Experimental data collected from several papers", "note": "Numbered parts are unrelated; each lists some results of a single study."}
{"data": "Study 1", "target": "Interferon regulatory factor 5, full length, phosphomimetic (IRF5, Homo sapiens, UniProt Q13568-2, residues 1-514, S451D/S453D/S456D/S462D)", "method": "protein-binding microarray", "form": "double-stranded DNA, one strand shown", "medium": "in vitro", "concentration": "940 nM top", "setting": "60-bp whole probe", "with": "salmon DNA 0.4 mg/ml", "reference": "random background probes", "direction": "higher = stronger binding"}
{"Sequence": "GCCTAGCACTTAGGTCTCCCTATCCTTTAGTGCTAGGTCTTGATTCGCTTGACGCTGCTG", "fitted relative affinity [z-score]": 0.621}
{"Sequence": "GCCTAGCACTCACACTTCCTTCTGCCACTGTGCTAGGTCTTGATTCGCTTGACGCTGCTG", "fitted relative affinity [z-score]": 1.54}
{"Sequence": "GCCTAGCACTTAGATCTCAGTCTCTATTAGTGCTAGGTCTTGATTCGCTTGACGCTGCTG", "fitted relative affinity [z-score]": 0.743}
{"Sequence": "GCCTAGCACTCAATTTTTACTTTCTGACTGTGCTAGGTCTTGATTCGCTTGACGCTGCTG", "fitted relative affinity [z-score]": 1.64}
{"data": "Study 2", "target": "Sal-like protein 4, full length isoform A (SALL4, Homo sapiens, UniProt Q9UJQ4, residues 1-1053)", "method": "universal PBM", "form": "double-stranded DNA, one strand shown", "medium": "in vitro", "concentration": "600 nM", "setting": "8-mer, flanks averaged, mean of replicates", "direction": "higher = stronger binding", "chain of UniProt Q9UJQ4 (whole entry, looked up)": "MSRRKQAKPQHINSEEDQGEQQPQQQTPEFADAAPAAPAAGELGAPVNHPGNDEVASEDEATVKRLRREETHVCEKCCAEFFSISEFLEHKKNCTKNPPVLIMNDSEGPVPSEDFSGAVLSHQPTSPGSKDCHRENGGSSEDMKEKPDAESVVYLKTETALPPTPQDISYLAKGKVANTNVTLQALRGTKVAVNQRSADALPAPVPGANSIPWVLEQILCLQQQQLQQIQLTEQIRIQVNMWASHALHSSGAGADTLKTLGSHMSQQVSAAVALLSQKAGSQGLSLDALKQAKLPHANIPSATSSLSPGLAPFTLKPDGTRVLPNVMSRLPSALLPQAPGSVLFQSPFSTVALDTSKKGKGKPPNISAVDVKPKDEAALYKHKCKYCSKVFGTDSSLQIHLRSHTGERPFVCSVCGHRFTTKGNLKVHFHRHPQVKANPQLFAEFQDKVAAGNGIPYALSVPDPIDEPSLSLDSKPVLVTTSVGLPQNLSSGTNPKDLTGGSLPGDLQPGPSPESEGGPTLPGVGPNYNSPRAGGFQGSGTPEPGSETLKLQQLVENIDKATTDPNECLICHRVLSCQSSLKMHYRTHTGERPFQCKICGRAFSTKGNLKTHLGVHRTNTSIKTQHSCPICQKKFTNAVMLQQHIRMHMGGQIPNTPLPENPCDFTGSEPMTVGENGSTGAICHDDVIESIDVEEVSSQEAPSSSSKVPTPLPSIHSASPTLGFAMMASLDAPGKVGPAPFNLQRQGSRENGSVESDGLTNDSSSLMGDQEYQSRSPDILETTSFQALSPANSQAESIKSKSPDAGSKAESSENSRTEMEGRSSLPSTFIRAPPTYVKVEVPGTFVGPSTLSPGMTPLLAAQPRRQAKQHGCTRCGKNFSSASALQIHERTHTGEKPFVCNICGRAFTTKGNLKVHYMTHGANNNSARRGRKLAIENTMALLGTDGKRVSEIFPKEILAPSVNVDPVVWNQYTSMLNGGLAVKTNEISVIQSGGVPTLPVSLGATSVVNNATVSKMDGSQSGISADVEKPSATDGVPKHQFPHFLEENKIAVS"}
{"Sequence": "AGTCGACT", "E-score": 0.197}
{"Sequence": "GAAAATTA", "E-score": 0.366}
{"Sequence": "AAATAGGC", "E-score": 0.161}
{"Sequence": "AGTCAGAT", "E-score": 0.0925}
{"Sequence": "GAATTCAA", "E-score": 0.0949}
{"Sequence": "ACCCTAGT", "E-score": -0.105}
{"Sequence": "CCGAACAG", "E-score": -0.14}
{"data": "Study 3", "target": "Protein C-ets-1 (ETS1, Homo sapiens, UniProt P14921, residues 1-441, full length assumed)", "method": "protein-binding microarray", "form": "double-stranded DNA, one strand shown", "medium": "in vitro", "concentration": "not given", "setting": "k-mer, scored over probes, only values ≥0.25", "direction": "higher = stronger binding", "Residues (chain)": "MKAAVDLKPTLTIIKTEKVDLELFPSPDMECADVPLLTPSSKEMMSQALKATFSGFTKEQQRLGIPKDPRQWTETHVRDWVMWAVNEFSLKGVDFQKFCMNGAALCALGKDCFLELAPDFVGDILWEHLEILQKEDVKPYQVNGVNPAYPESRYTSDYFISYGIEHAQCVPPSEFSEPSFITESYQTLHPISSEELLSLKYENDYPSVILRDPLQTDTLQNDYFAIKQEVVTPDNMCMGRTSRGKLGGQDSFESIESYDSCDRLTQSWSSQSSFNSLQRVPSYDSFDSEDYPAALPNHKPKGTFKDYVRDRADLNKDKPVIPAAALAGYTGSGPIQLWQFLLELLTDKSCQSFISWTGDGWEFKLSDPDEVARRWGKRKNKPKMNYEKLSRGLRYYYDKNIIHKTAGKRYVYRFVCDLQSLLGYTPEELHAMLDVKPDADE"}
{"Sequence": "GAAGCCAC", "E-score": 0.262}
{"Sequence": "ACCGGTTG", "E-score": 0.296}
{"Sequence": "GCTCTTCC", "E-score": 0.284}
{"Sequence": "CCCTCCGG", "E-score": 0.267}
{"Sequence": "ACATCCGC", "E-score": 0.481}
{"data": "Single results of other studies"}
{"Substance": "PhoQ, residues 284 288 289 292 302 303 TGYLSA", "target": "PhoP, residues 12 14 15 18 19 LHSVW (Escherichia coli, UniProt P23836)", "test": "Sort-seq, item: YFP reporter", "system": "E. coli", "setting": "PhoQ-PhoP variant library, with: 10 µM Mg2+", "how to read": "reference: high Mg2+ state, higher = stronger signaling", "measurement": "fold induction", "result": 4.18}
{"note": "Excerpt of the above (study 2):"}
{"Sequence": "GAAAATTA", "E-score": 0.366}
{"Sequence": "AGTCGACT", "E-score": 0.197}
